Experimental data gathered from unrelated publications.
A part holds a random share of what one study measured.

Series 1 — method: protein-binding microarray; molecule type: double-stranded DNA, one strand shown; matrix: in vitro; tested at: 2200 nM top; setting: 60-bp whole probe; added: salmon DNA 0.4 mg/ml; relative to: random background probes; direction: higher = stronger binding; all sequences stand within: GCCTAGCAC … GTCTTGATTCGCTTGACGCTGCTG
Target: Interferon regulatory factor 7, full length, phosphomimetic (IRF7, Homo sapiens, UniProt Q92985, residues 1-503, S471D/S472D/S475D/S476D/S477D/S483D/S484D/S487D)
Construct (chain): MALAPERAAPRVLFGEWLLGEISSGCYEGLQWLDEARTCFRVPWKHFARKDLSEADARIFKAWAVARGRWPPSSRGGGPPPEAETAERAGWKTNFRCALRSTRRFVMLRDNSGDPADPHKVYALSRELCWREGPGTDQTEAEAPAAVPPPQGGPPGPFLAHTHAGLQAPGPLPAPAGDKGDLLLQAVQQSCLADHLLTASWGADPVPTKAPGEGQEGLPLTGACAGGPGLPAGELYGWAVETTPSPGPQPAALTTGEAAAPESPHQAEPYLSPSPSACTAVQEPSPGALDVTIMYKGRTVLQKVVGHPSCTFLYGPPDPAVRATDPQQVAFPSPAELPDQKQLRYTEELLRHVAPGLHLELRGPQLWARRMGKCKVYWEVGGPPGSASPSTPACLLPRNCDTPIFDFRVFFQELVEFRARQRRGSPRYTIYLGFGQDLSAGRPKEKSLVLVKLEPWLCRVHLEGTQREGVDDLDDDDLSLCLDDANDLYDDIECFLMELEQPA
| Strand | fitted relative affinity [z-score] |
| --- | --- |
| GACGATCTTAGTTTCGAGACGTGCTAG | 4.05 |
| GACGATCTTAGTATCGAGACGTGCTAG | 0.103 |
| TTAGATTTCAGTCTCGATTGGTGCTAG | 1.29 |
| TTAGGTCTCGGACTAGGTTAGTGCTAG | -0.261 |
| GATGATCTCAGTCTCGAGACGTGCTAG | 0.442 |
| GGTGTCTAGGTTAGGGATTAGTGCTAG | -0.0959 |
| TTAGGTTTAGGACTGGGTTAGTGCTAG | -0.133 |
| CTTTCTTTGCTTCACCCTGGGTGCTAG | 1.19 |
| GAGGAACTGGGGTTTCGAGACGTGCTA | 0.623 |
| GACGAACTGAGTCTCGAGACGTGCTAG | 0.115 |
| TAGAGTAGCTTTCTGAGGGCGTGCTAG | -0.295 |
| TTAGATTTTAGTTCCGATTAGTGCTAG | 1.06 |
| GAAGAACTGGGGTTTCGAGACGTGCTA | 0.894 |
| GACGTTCTCGGTATCGGGACGTGCTAG | 0.703 |
| TTAGAGCTCAGTATCGATTAGTGCTAG | -0.354 |
| TCAACTTTAGGTTCCCAACTGTGCTAG | 1.42 |
| AACGGACTGCTTCTCCTGACGTGCTAG | 0.581 |
| GACGGTCTCCGTCTCCTGACGTGCTAG | 0.144 |
| TAGTTTTACTTTCTATCTCTGTGCTAG | 6.23 |

Series 2 — method: universal PBM; molecule type: double-stranded DNA, one strand shown; matrix: in vitro; tested at: not given; direction: higher = stronger binding
Target: Sal-like protein 4, full length isoform B (SALL4, Homo sapiens, UniProt Q9UJQ4-2, residues 1-616)
Setting: 8-mer, flanks averaged, mean of replicates
| Strand | E-score |
| --- | --- |
| GACTTAAC | -0.0473 |
| CCACTGCC | -0.273 |
| ATGAATGG | 0.0221 |
| ACCGTTGA | 0.0109 |
| ACAAAATC | 0.119 |
| GATGGACC | -0.181 |
| ATGAAGCA | 0.0954 |
| CAAAGATC | 0.106 |
| CCTCACTC | -0.182 |
| TATTCAAA | 0.32 |
| ATTGGTAC | -0.00852 |
| TATTCTAA | 0.259 |
| CGCCGCGC | -0.351 |
| AATGCGTG | 0.074 |
| CTGGATAA | 0.0444 |
| CGCTACAC | -0.0416 |
| CAGAAGGG | -0.133 |
| CGGATATA | 0.153 |
| ACAAGTCC | -0.0226 |
| AGGCAACC | -0.187 |
| ATCCAAAG | 0.0882 |
| AAGATGTG | 0.0707 |
| GGTCAGTA | -0.0367 |

Series 3 — method: protein binding microarray; molecule type: double-stranded DNA, one strand shown; matrix: in vitro; tested at: not given; relative to: not given; direction: higher = stronger binding
Target: Histone acetyltransferase KAT6A, winged helix 2, GST fusion (KAT6A, Homo sapiens, UniProt Q92794, residues 85-181)
Setting: 8-mer, flanks averaged, mean of 2 arrays, mostly near background
Construct (chain): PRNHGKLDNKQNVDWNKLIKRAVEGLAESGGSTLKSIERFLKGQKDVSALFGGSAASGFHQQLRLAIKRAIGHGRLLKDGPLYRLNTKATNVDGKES
| Strand | E-score |
| --- | --- |
| AGCCAAAT | -0.135 |
| ACTATCTG | -0.0596 |
| ACATTGGC | -0.142 |
| CGGTTTGC | 0.183 |
| CCTCCTGC | 0.108 |
| TGCATAAA | 0.239 |
| CACGGCCA | -0.034 |
| AAGACCCA | -0.134 |
| CCCTCATA | -0.217 |
| ACGGAGCG | 0.102 |
| CGATAGGC | -0.0871 |
| ACCACCTG | 0.0193 |
| ACCCTTTC | -0.129 |
| CGATATCA | 0.0659 |
| CAACACTG | -0.0559 |
| CTCTCCAA | -0.0529 |
| ATTCTCAA | -0.0763 |
| TAACGGCA | -0.0483 |
| ACATAAGG | -0.171 |
| AATGTAGG | -0.12 |
| CGTCCTAG | -0.131 |
| GTGTTGTA | -0.158 |
| AGGGAAAC | 0.00323 |
| AATCCTGC | 0.0384 |
| CTATCCCC | -0.0466 |

Series 4 — method: RNA Bind-n-Seq; molecule type: RNA; matrix: in vitro; tested at: 365 nM; relative to: no-protein control; direction: higher = stronger binding
Target: RNA binding protein fox-1 homolog 2, RRM domain, GST-SBP tag (RBFOX2, Homo sapiens, UniProt O43251-10, residues 100-194)
Setting: natural RNA segment, single round, ends assumed
All sequences stand within: GGGAGUUCUACAGUCCGACGAUC … UGGAAUUCUCGGGUGCCAA
Construct (chain): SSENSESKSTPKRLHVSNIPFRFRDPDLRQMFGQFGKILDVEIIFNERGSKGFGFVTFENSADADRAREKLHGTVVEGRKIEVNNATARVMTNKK
| Strand | RBNS enrichment (R) |
| --- | --- |
| CUGCAAACUCAGUCUCAUGCUCCUGGAAUACCUUCAAUAGCUGCCUUCCUCACCGCAGAUGUUUCUGCCUCUUAAGGAUAGAUCUUCUGCAACAGUCUUGCUGACAAGCU | 0.34 |
| CUCUACUGCUGUCCUACAAUACAUGAGGUGACUUCCGGCCAUGCUGCCCACUGUUGGCGGCUCUGUGUGUUAAUAGGCUAGGGAGAGGAGUGUCUGCUGCCGCUUGCUUC | 1.99 |
| UUUUAUGUUGAGCCAAGAGAGAAUAUGUUGCACUUUAAACACGCUGUGUCCUGCUCCCUUUGAGUGUAGAUAUCUUCAAGUUGAAGCCAAUUAUAAGUGUAGCCAUUUUU | 0.525 |
| GUAAUACUGACCAUUUUAGUCCCCUAGGUUUGACAUGGGAGAUAGUGACUACACUGGUGUCUGACUUUUUUCCUAGAGAUUUCUCCCUGAAAAAUACAAGGGCUGUUGGU | 5.03 |
| AGUUGGUUCUGAGGACAGAUGAUCCCCACAGACUGUGGGAGUGAUUGGCCAGGCCUUGUUUUUUCUUGUGUUUUGUUCUUUUUGUAGACUAGUGUGGUAACUAGGGAACA | 1.09 |
| CCAGGUGAUUUUGUUUUCAAAUGCUCCUUGUGAAAACACCUAGUGUUGUAGAAAGGAAAGUGGCCAGAAAGAACAACUUGGGACCAUGAGUAGGUCAUUAAAUAGCUUAG | 0.225 |
| UUUUUGCUGGGUUUAUUCGUGCUGGUUCAUCGUGAGUAAGAAGCCUGCCUUGCUGUUCCUGGGAAGAUGCCAUAGUUUUCGUUACUGGAUGUUUGGAGUAGAUACUGGUC | 1.79 |
| GUAACCAAUGUCAUCUUGCUAAAUUCAUGUUUUGUACAAUUACUAAAUUGUAUACAUUUUGUUAUAGAAUACUUUUUCCAGUUGAGUAAAUUAUGAAAGGAAGUUAACAU | 0.643 |

Some of these lines once more (series 3):
| Strand | E-score |
| --- | --- |
| CCTCCTGC | 0.108 |
| ACCACCTG | 0.0193 |
| ACTATCTG | -0.0596 |
| ATTCTCAA | -0.0763 |
| AATCCTGC | 0.0384 |
| TAACGGCA | -0.0483 |
